Values quoted from earlier work, collected from citations in different studies.
Compare with care: the assays were run in different laboratories. ± gives the spread as reported.
Competence histidine kinase ComD: Competence histidine kinase ComD (Streptococcus pneumoniae serotype 2, UniProt A0A0H2ZM50)

Sequences of proteins named here, by UniProt entry; tags and fusion partners are left off. Residues count along the entry.
UniProt A0A0H2ZM50, 1-441: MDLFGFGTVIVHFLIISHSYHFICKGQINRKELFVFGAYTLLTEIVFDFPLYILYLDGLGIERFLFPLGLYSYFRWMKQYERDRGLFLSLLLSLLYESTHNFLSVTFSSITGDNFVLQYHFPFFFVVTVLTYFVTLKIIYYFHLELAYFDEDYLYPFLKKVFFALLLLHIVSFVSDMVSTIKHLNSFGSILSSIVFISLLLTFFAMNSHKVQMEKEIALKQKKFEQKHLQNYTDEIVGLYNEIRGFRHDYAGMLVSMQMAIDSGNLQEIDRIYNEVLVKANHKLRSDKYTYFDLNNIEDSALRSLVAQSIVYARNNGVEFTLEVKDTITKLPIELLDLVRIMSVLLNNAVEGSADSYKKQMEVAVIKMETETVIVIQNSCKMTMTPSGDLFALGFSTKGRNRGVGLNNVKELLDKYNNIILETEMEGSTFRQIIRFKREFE
UniProt O33590, 1-425: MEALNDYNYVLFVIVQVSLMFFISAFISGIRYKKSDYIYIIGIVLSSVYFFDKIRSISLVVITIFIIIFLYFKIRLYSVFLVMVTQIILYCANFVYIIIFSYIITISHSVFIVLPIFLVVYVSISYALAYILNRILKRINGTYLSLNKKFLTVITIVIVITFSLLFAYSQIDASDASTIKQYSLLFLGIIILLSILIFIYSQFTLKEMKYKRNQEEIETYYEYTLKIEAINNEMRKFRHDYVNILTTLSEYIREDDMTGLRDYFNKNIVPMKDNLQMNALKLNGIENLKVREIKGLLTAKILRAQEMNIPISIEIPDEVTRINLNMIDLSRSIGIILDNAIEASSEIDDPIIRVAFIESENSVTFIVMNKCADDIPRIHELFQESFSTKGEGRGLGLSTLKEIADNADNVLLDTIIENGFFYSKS
UniProt P40261, whole entry: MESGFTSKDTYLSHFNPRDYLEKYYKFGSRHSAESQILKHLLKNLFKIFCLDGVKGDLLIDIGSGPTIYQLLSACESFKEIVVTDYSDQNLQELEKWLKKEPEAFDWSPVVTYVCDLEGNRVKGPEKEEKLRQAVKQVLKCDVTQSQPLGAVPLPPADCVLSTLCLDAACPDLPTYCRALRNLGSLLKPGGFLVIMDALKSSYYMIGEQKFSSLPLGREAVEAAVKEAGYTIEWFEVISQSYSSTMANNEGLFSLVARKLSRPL
UniProt Q62645, whole entry, looked up: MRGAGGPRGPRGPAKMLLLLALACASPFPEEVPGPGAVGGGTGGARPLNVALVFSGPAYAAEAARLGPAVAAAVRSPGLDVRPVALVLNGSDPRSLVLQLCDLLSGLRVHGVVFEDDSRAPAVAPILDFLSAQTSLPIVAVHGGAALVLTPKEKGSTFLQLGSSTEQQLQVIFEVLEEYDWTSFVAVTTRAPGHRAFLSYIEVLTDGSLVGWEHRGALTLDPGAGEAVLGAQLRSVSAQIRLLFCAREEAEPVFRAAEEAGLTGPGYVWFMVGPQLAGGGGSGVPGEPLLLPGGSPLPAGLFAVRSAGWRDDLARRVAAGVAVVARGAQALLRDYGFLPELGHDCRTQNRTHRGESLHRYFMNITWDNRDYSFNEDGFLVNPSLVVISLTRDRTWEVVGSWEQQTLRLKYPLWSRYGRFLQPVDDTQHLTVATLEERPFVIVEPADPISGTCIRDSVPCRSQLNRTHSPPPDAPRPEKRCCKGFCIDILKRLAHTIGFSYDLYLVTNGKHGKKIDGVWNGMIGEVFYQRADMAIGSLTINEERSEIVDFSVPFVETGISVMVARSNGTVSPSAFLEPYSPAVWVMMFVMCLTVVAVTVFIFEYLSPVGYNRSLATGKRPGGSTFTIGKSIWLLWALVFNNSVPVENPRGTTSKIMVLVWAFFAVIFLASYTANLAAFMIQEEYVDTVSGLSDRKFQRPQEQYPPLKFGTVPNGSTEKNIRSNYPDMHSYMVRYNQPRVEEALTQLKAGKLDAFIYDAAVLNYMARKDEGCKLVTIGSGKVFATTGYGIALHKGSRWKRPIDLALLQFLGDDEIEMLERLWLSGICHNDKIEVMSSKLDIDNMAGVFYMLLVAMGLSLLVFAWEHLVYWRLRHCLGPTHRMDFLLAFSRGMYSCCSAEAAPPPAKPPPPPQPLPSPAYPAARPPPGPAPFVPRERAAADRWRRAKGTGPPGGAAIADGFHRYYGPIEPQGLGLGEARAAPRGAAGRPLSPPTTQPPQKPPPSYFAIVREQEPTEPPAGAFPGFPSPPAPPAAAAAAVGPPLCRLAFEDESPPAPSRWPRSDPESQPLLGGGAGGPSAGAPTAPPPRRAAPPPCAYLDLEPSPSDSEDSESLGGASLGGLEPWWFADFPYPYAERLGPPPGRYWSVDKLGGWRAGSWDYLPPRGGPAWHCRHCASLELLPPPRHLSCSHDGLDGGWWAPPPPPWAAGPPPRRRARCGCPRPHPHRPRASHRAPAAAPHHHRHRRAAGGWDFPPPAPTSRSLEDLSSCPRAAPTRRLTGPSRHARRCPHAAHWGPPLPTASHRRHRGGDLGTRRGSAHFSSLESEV
UniProt P25084, whole entry: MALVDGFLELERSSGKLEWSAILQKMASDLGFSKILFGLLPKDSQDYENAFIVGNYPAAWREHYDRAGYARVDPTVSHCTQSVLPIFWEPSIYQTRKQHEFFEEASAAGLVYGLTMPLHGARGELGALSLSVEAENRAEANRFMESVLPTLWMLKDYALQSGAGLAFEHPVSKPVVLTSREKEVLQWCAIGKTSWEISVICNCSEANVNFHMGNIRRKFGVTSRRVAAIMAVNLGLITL
UniProt P41143, whole entry: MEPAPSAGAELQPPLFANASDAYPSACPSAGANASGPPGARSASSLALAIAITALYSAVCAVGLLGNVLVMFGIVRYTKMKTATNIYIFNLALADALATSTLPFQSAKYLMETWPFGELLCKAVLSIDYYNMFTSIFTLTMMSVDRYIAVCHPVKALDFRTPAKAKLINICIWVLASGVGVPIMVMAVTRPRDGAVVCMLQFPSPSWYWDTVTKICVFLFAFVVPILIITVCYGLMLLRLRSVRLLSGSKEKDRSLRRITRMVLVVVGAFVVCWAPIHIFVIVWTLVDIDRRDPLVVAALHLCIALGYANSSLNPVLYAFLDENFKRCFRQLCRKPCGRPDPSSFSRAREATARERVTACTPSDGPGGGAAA

| SMILES | tested on | assay | test system | setting | quantity | result |
| --- | --- | --- | --- | --- | --- | --- |
| CC[C@H](C)[C@@H]1NC(=O)[C@H](Cc2ccccc2)NC(=O)[C@H](CC(=O)O)NC(=O)[C@@H](NC(=O)[C@@H](NC(=O)[C@H](CO)NC(=O)[C@@H](N)Cc2ccc(O)cc2)[C@@H](C)O)CSC(=O)[C@H](CCSC)NC1=O | Accessory gene regulator protein C (Staphylococcus aureus, UniProt O33590) | inhibitor |  |  | IC50 | ~0.5 nM |
| CC[C@H](C)[C@H](NC(=O)[C@H](Cc1ccccc1)NC(=O)[C@H](CC(=O)O)NC(=O)[C@H](CCCNC(=N)N)NC(=O)[C@H](Cc1ccccc1)NC(=O)[C@H](Cc1ccccc1)NC(=O)[C@H](CCCCN)NC(=O)[C@H](CO)NC(=O)[C@H](CC(C)C)NC(=O)[C@H](CCCNC(=N)N)NC(=O)[C@H](CCSC)NC(=O)[C@@H](N)CCC(=O)O)C(=O)N[C@@H](CC(C)C)C(=O)N[C@@H](CCC(N)=O)C(=O)N[C@@H](CCCNC(=N)N)C(=O)N[C@@H](CCCCN)C(=O)N[C@@H](CCCCN)C(=O)O | Competence histidine kinase ComD | reporter gene, agonist | Streptococcus pneumoniae, D39 pcomX::lacZ |  | EC50 | 10.3 nM |
| NC(=O)c1cccc(CCN(CC[C@H](N)C(=O)O)C[C@H]2O[C@@H](n3cnc4c(N)ncnc43)[C@H](O)[C@@H]2O)c1 | NNMT (Homo sapiens, UniProt P40261) | enzyme activity, inhibitor, SAHH-coupled enzyme |  |  | Ki | 10 ± 0.3 µM |
| COc1ccc(OC[C@H]2c3cccn3CC(=O)N2Cc2cccc(F)c2)cc1 | Glutamate receptor ionotropic, NMDA 2D, with GluN1 (Rattus norvegicus, UniProt Q62645) | ion current, positive allosteric modulator |  |  | EC50 | 3200 nM |
| CC[C@H](C)[C@H](NC(=O)[C@H](CCCNC(=N)N)NC(=O)[C@H](CCSC)NC(=O)[C@H](C)N)C(=O)N[C@@H](CO)C(=O)N[C@@H](CCCNC(=N)N)C(=O)N[C@H](C(=O)N[C@H](C(=O)N[C@@H](CC(C)C)C(=O)N[C@H](CC(=O)O)C(=O)N[C@@H](Cc1ccccc1)C(=O)N[C@@H](CC(C)C)C(=O)N[C@@H](Cc1ccccc1)C(=O)N[C@@H](CC(C)C)C(=O)N[C@@H](CCCNC(=N)N)C(=O)N[C@@H](CCCCN)C(=O)N[C@@H](CCCCN)C(=O)O)[C@@H](C)CC)[C@@H](C)CC | Competence histidine kinase ComD | reporter gene, antagonist | Streptococcus pneumoniae, D39 pcomX::lacZ |  | IC50 | > 1000 nM |
| Nc1nc(Nc2ccc(Cl)cc2)nn1S(=O)(=O)c1ccc2ccccc2c1 | Gag-Pol polyprotein, reverse transcriptase (gag-pol, Human immunodeficiency virus 1, UniProt P03366) |  |  |  | IC50 | 280 nM |
| CN1C(=O)CN=C(c2ccccc2)c2cc(Cl)ccc21 |  | convulsive seizures | rat lithium-pilocarpine status epilepticus | 0 min after SE onset | ED50 | 3 mg/kg |
| O=C(NCc1cc(Br)cc(Br)c1OC(=O)c1ccccc1[N+](=O)[O-])c1ccccc1Cl | lasR (Pseudomonas aeruginosa, UniProt P25084) | reporter gene |  |  | EC50 | 71 nM |
| NC(=O)[C@H](Cc1ccccc1)NC(=O)[C@H](CCCN=C(N)N)NC(=O)C12CC3CC(CC(C3)C1)C2 | OPRD1 (Homo sapiens, UniProt P41143) | binding |  |  | Ki | > 5 µM |
| NC(=O)c1ccc(-c2cc(C(=O)O)cc(-n3cc(-c4ccc(C(F)(F)F)cc4)nn3)c2)cc1 |  |  | simulated gastric fluid |  | half-life | > 240 min |
| C=C(C)C1CCc2c(c(C)cc(O)c(=O)c2O)C1 (stereo not drawn) | Gag-Pol polyprotein, RNase H domain (gag-pol, Human immunodeficiency virus type 1 group M subtype B, UniProt P04585) | RT RNase H activity, inhibitor |  |  | IC50 | 600 nM |
| CCCC(CCC)C(=O)O |  |  | rat lithium-pilocarpine status epilepticus | 300 mg/kg, 30 min after SE onset | convulsive seizure suppression | no effect |

For quick reference, copied from above:
| SMILES | tested on | assay | test system | setting | quantity | result |
| --- | --- | --- | --- | --- | --- | --- |
| O=C(NCc1cc(Br)cc(Br)c1OC(=O)c1ccccc1[N+](=O)[O-])c1ccccc1Cl | lasR (Pseudomonas aeruginosa, UniProt P25084) | reporter gene |  |  | EC50 | 71 nM |
